Measurements from different studies.
Compare with care: the assays were run in different laboratories. Values joined by “and” are separate records of one study, mostly repeats; a detail may differ. ± gives the spread as reported.
Phospholipase D2: Phospholipase D2 (Homo sapiens, UniProt O14939)
Sequence of UniProt O14939 (whole entry, looked up): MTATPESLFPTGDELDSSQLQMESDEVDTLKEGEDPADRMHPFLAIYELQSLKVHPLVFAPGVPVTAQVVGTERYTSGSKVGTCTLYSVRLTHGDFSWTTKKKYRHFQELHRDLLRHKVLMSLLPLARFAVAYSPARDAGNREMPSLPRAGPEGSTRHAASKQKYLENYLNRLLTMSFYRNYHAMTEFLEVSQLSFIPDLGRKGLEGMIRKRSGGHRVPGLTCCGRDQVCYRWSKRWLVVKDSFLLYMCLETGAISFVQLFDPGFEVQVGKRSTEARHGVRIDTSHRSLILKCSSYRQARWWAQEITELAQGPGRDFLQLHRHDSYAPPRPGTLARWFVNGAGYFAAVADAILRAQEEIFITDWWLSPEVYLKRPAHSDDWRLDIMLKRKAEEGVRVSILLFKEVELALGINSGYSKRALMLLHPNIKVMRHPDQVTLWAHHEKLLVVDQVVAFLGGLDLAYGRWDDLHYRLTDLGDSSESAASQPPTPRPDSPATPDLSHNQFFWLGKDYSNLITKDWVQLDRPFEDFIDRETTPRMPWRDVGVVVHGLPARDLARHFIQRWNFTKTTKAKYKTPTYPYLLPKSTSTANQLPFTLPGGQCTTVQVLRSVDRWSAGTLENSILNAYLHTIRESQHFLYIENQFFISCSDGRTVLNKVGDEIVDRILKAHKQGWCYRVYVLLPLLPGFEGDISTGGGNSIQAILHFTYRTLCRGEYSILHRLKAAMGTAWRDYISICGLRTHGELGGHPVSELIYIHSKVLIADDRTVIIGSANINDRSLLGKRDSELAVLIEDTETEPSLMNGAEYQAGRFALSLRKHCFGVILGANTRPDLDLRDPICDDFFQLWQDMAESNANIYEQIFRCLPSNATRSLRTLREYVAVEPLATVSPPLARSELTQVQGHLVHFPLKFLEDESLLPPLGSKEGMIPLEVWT
uidA: Beta-glucuronidase (uidA, Escherichia coli, UniProt P05804)
Sequence of UniProt P05804 (whole entry, looked up): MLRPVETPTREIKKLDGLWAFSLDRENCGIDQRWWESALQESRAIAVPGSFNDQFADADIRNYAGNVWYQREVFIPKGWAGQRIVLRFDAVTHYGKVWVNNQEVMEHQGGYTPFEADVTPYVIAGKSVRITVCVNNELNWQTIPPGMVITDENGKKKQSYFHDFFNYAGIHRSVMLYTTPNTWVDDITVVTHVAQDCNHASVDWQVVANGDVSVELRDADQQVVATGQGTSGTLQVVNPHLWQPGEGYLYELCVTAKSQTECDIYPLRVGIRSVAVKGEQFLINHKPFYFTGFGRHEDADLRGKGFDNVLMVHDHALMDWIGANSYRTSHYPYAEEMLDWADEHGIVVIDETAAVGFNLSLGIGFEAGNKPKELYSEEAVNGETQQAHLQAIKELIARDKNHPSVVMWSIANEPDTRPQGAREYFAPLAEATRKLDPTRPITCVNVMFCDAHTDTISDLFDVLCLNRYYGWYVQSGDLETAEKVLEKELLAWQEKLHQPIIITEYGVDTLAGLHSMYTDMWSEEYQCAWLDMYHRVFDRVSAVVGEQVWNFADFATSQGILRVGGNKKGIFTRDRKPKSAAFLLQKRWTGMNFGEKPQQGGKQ
Sequence of UniProt Q96RJ0 (whole entry, looked up): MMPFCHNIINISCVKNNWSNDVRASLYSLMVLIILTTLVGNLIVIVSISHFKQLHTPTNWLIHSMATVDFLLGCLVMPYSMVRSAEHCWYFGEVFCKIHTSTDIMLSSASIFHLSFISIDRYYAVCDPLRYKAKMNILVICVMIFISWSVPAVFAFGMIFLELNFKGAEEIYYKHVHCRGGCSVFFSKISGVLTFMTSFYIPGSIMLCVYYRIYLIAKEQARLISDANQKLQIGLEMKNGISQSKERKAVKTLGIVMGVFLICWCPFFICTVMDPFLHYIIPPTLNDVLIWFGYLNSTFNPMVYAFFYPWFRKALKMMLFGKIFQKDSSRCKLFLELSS
Sequence of UniProt Q16706 (whole entry, looked up): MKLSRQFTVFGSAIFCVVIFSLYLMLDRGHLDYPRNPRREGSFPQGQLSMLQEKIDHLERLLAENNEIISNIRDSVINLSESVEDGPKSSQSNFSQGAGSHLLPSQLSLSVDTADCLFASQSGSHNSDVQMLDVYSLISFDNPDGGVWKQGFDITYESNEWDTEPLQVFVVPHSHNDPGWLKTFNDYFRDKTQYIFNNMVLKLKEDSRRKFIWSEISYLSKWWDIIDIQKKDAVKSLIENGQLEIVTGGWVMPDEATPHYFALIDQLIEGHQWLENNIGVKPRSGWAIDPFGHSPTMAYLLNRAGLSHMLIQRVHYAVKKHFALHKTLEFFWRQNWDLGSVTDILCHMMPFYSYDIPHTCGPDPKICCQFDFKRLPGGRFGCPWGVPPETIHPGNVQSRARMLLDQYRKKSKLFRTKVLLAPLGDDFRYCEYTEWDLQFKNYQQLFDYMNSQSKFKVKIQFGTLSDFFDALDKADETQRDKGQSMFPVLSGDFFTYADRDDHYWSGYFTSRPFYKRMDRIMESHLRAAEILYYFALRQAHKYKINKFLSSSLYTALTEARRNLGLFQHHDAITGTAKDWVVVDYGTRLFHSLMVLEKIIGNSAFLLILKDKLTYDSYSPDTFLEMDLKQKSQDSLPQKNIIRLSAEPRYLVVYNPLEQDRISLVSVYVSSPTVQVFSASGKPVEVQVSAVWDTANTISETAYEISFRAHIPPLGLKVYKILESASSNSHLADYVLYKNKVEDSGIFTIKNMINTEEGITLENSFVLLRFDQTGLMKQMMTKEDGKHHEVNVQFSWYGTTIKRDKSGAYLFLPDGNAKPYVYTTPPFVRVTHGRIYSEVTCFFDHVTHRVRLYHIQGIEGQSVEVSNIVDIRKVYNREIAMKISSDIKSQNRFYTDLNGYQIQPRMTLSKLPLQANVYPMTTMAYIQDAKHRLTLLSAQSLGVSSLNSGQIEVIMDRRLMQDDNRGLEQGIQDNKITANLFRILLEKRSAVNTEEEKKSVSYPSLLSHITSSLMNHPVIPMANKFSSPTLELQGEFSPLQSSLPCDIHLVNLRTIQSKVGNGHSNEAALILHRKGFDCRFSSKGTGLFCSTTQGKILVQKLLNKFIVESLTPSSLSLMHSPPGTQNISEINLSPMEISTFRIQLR
Sequence of UniProt Q96KQ7 (whole entry, looked up): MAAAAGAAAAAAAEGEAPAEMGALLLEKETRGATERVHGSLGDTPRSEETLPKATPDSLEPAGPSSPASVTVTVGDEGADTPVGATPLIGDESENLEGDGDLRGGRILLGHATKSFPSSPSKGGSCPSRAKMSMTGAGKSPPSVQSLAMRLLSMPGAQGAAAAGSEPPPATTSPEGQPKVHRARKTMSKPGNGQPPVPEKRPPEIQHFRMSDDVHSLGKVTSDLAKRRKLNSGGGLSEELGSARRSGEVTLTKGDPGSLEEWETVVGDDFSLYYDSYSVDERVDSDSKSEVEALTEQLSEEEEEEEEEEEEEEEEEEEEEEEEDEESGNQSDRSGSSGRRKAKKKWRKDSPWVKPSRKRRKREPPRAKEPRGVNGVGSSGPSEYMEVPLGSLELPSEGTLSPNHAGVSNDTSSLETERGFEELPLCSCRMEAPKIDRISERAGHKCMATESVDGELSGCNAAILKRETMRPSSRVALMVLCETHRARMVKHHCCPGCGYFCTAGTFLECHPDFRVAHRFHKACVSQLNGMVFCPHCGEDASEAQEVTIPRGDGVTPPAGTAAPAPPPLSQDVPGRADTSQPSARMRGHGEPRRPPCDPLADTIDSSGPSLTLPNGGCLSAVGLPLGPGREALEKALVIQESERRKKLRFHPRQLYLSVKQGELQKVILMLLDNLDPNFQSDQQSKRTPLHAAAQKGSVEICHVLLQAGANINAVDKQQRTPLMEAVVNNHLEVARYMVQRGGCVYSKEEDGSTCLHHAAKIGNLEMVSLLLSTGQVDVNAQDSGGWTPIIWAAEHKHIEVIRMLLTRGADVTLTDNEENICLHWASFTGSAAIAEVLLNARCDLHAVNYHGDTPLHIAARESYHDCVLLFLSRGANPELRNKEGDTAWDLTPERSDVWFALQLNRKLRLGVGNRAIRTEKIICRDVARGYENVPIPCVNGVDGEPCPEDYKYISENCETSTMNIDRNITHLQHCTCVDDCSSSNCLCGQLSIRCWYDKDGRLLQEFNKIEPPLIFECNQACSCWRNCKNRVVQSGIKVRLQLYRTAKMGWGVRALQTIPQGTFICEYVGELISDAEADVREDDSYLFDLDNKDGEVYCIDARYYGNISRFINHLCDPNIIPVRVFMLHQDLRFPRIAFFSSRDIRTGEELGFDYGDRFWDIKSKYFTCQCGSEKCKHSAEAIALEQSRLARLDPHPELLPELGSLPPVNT
Sequence of UniProt P15056 (whole entry, looked up): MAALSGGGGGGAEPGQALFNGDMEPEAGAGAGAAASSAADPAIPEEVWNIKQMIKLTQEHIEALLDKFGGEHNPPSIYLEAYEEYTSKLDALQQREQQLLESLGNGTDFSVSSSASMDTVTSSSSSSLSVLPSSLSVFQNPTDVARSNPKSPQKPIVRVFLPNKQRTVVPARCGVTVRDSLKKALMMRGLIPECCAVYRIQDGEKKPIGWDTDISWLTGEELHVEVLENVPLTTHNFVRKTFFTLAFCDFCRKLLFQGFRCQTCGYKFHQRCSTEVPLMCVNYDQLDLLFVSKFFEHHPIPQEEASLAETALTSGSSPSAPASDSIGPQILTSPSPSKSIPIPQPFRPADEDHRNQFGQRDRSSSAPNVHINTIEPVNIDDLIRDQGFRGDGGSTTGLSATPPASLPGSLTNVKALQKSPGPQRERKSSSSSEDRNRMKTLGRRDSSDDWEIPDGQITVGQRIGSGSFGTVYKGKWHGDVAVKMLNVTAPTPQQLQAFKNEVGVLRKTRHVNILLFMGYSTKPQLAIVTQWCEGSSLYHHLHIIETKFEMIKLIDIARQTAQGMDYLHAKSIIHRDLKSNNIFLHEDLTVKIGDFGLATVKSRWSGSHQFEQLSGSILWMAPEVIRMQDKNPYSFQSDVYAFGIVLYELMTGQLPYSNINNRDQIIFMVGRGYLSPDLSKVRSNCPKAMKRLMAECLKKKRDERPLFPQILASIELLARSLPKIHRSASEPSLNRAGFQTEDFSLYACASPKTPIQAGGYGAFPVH

SMILES | target | test | system | setting | IC50
CCCC[C@H](NC(=O)[C@H](Cc1ccccc1)NC(=O)CNC(=O)[C@@H](C)NC(=O)[C@@H](N)Cc1ccc(O)cc1)C(=O)N1CCC[C@H]1C(=O)N[C@@H](CC(C)C)C(=O)N[C@@H](CO[C@@H]1O[C@H](CO)[C@@H](O)[C@H](O)[C@H]1O)C(=O)N[C@@H](Cc1c[nH]c2ccccc12)C(=O)NCc1cc(C(F)(F)F)cc(C(F)(F)F)c1 | Substance-P receptor (Rattus norvegicus, UniProt P14600) | ligand displacement, radioligand | – | – | 0.0955 µM
CC(C)=CCC[C@](C)(O[C@@H]1O[C@H](CO[C@@H]2OC[C@@H](O)[C@H](O)[C@H]2O)[C@@H](O)[C@H](O)[C@H]1O)C1CC[C@]2(C)C1[C@H](O)CC1[C@@]3(C)CC[C@H](O[C@@H]4O[C@H](CO)[C@@H](O)[C@H](O)[C@H]4O[C@@H]4O[C@H](CO)[C@@H](O)[C@H](O)[C@H]4O[C@@H]4OC[C@@H](O)[C@H](O)[C@H]4O)C(C)(C)C3CC[C@]12C (some centres unmarked) | PTPN1 (Homo sapiens, UniProt P18031) | enzyme activity, inhibitor, absorbance | – | pH 7.4 | > 100 µM
O=C(O)Cc1cccc(OC(=O)NCCCCCn2ccc3ccc(F)cc32)c1 | Faah (Rattus norvegicus, UniProt P97612) | – | rat brain homogenate | 60 min, 37 °C | 0.058 µM
O=C(/C=C/c1ccc(F)cc1)c1ccc(N2CCNCC2)cc1 | Beta-secretase 1 (BACE1, Homo sapiens, UniProt P56817) | enzyme activity, inhibitor, fluorescence | – | with preincubation | 14.9 µM
CCOc1ccc2ccccc2c1/C=C\c1nc(O)c([N+](=O)[O-])c(=O)[nH]1 | ACP3 (Homo sapiens, UniProt P15309) | enzyme activity, inhibitor | – | – | 6.9 µM
C[C@@H](O)[C@H](NC(=O)[C@@H](N)CO)C(=O)N[C@H]1CSC(=O)[C@H](Cc2ccccc2)NC(=O)[C@H](Cc2ccc(O)cc2)NC(=O)[C@H](Cc2ccc(O)cc2)NC(=O)[C@H](CO)NC1=O | accessory gene regulator AgrC (Staphylococcus aureus, UniProt A0A0H2XKA3) | – | – | – | 0.003 µM
CC(C)C(=O)Nc1cccc(-c2nn[nH]n2)c1 | VIM-2 (Escherichia coli, UniProt Q5U7L7) | enzyme activity, inhibitor, fluorescence | – | with preincubation | > 100 µM
CC(C)[C@H](NC(=O)c1ccc(CNc2nc3c(c(=O)[nH]2)CCC3)cc1)C(=O)NC1COC1 | MMP14 (Homo sapiens, UniProt P50281) | enzyme activity, inhibitor | – | – | > 5 µM
Oc1cc(O)c2c(c1)OC(c1ccc(O)c(O)c1)C(OC1(c3ccc(O)c(O)c3)Oc3cc(O)cc(O)c3C(O)C1O)C2 (centres unmarked) | mRNA cap guanine-N(7) methyltransferase, with RAM (RNMT, Homo sapiens, UniProt O43148) | N7-methyltransferase activity, inhibitor, Py-FLINT | – | RNMT-RAM complex, added: SAM 20 µM | 1 ± 0.1 µM
Cc1ccc2nc(C)c(C(=O)NCc3cccs3)n2c1 | Cytochrome P450 3A4 (CYP3A4, Homo sapiens, UniProt P08684) | enzyme activity, inhibitor | – | added: VG substrate | 9.8 µM
CC[C@H](C)[C@@H]1NC(=O)[C@H](Cc2c[nH]c3ccccc23)NC(=O)CNC(=O)c2cc3cc(c2)C(=O)NC[C@H](NC(=O)[C@@H](C)NC(=O)[C@H](Cc2ccc(O)cc2)NC1=O)C(=O)N[C@@H](Cc1ccccc1)C(=O)N[C@@H](Cc1ccc2ccccc2c1)C(=O)N[C@@H](CCCNC(=N)N)C(=O)N[C@H](CCCNC(=N)N)C(=O)N[C@@H](CCCNC(=N)N)C(=O)N[C@H](C(=O)NCCC(=O)NCCC(=O)N[C@@H](CCCCN)C(N)=O)CNC3=O | NF-kappa-B essential modulator, with IKK-beta (IKBKG, Homo sapiens, UniProt Q9Y6K9) | inhibitor, HTRF | – | – | 2.9 ± 0.1 µM
N#Cc1c(C(F)(F)F)cc(-c2ccc(Cl)cc2)nc1SCC(=O)N1CCCC1 | TAAR1 (Homo sapiens, UniProt Q96RJ0) | – | – | – | 0.357 µM and < 0.5 µM
CC[C@H](C)[C@@H]1NC(=O)[C@H](Cc2ccccc2)NC(=O)[C@H](CC(N)=O)NC(=O)[C@@H](NC(=O)[C@@H](NC(=O)[C@H](CO)NC(=O)[C@@H](N)Cc2ccc(O)cc2)[C@@H](C)O)CSC(=O)[C@H](CCSC)NC1=O | accessory gene regulator protein C (Staphylococcus aureus, UniProt O33587) | – | – | – | 0.00453 µM
NC[C@@H]1[C@@H](O)[C@@H](O)[C@H]2[C@@H](O)CCCN21 | Alpha-mannosidase 2 (Homo sapiens, UniProt Q16706) | enzyme activity, inhibitor, 4-MU fluorogenic | – | added: Man-α-4MU 5 mM | 48 µM
O=C(NCCN1CCC2(CC1)C(=O)NCN2Cc1cccnc1)c1cc2ccccc2[nH]1 | Phospholipase D2 | enzyme activity, inhibitor | – | – | 0.052 µM
C1CCc2c(c(N3CCOCC3)nc3sc4c(N5CCOCC5)nnnc4c23)C1 | uidA | enzyme activity, inhibitor | – | – | > 100 µM
NCCCC[C@H](NC(=O)[C@H](Cc1c[nH]c2ccccc12)NC(=O)[C@H](CCCCN)NC(=O)CNC(=O)CCC(=O)NN)C(N)=O | Tryptase beta-2 (TPSB2, Homo sapiens, UniProt P20231) | – | – | pH 7.4 | 62.6 ± 6.86 µM
COC(=O)c1ccc(-n2nc(-c3ccccc3O)nc2-c2ccccc2O)cc1 | 5-lipoxygenase | – | – | – | 26.9 ± 3.54 µM
O=C(O)c1cc(Br)c[nH]1 | 4-diphosphocytidyl-2-C-methyl-D-erythritol kinase (ispE, Klebsiella pneumoniae subsp. pneumoniae, UniProt A6TAP2) | enzyme activity, PK/LDH coupled spectrophotometric | – | – | 124 ± 1.1 µM

SMILES | target | test | system | setting | IC50
C[C@]12CCC[C@H]1[C@@H]1CCc3c(cc(Br)c(O)c3Br)[C@H]1CC2 | AKR1C2 (Homo sapiens, UniProt P52895) | enzyme activity, inhibitor, absorbance | – | pH 9 | 0.9 µM
CC[C@H](C)[C@H](NC(=O)[C@@H](N)Cc1ccc(O)cc1)C(=O)N[C@@H](Cc1ccccc1)C(=O)N[C@@H](CC(N)=O)C(=O)N[C@@H](CC(C)C)C(=O)O | OPRM1 (Homo sapiens, UniProt P35372) | binding, radioligand displacement | DU-145 | added: [3H]DAMGO | 6.52e-05 ± 5.8e-17 µM
CN(C)c1ccc(NC(=O)CCCCCNC(=O)CS)cc1 | HDAC2 (Homo sapiens, UniProt Q92769) | enzyme activity, inhibitor | – | – | 17 µM
O=C(O)CN(CCO)CCO | IMP-28 metallo-beta-lactamase | enzyme activity, inhibitor, FC5 fluorescent substrate | – | 60 pM enzyme, 1 µM ZnSO4 | > 200 µM
C1CCN(c2nnnc3c2sc2nc(N4CCOCC4)c4c(c23)CCCC4)CC1 | uidA | enzyme activity, inhibitor, absorbance | – | pH 7.5 | > 100 µM
O=C1NC(=S)NC(=O)C1=Cc1ccc(-c2cccc([N+](=O)[O-])c2)o1 | BRAF (Homo sapiens, UniProt P15056) | enzyme activity, inhibitor, ELISA | – | – | 6.6 µM
O=C(c1cccc(-n2cccc2)c1)N1CCCN(S(=O)(=O)c2ccc(F)cc2)CC1 | Genome polyprotein, 3C protease (rhinovirus B14, UniProt P03303) | 3C protease activity, SAMDI-MS | human rhinovirus | – | 1.67 µM
C/C=C1/CN2CCc3c([nH]c4ccccc34)[C@@H]2C[C@@H]1/C(=C\OC)C(=O)OC | HTR7 (Homo sapiens, UniProt P34969) | ligand displacement, radioligand | – | cell membranes | 0.034 µM
CC[C@H](C)[C@H](NC(=O)[C@@H]1CSSC[C@H](NC(=O)[C@H](Cc2ccc(O)cc2)NC(=O)CN)C(=O)N[C@@H](CO)C(=O)N[C@@H](CCCNC(=N)N)C(=O)N[C@@H](CO)C(=O)N[C@@H](Cc2ccc(O)cc2)C(=O)N2CCC[C@H]2C(=O)N2CCC[C@H]2C(=O)N[C@@H](C(C)C)C(=O)N1)C(=O)N1CCC[C@H]1C(=O)N[C@@H](CC(=O)O)C(N)=O | Mannan-binding lectin serine protease 2 (Homo sapiens, UniProt O00187) | C3 deposition, inhibitor, ELISA | 100-fold diluted human serum | 30 min preincubation | 0.473 µM
CC(C)C[C@H](NC(=O)CN)C(=O)N[C@@H](CC(=O)O)C(=O)N[C@@H](CC(N)=O)C(=O)N[C@@H](Cc1ccc(O)cc1)C(=O)N[C@@H](CCCNC(=N)N)C(=O)NCC(=O)N[C@@H](Cc1ccc(O)cc1)C(=O)N[C@@H](CO)C(=O)N[C@@H](CC(C)C)C(=O)NCC(=O)N[C@@H](CC(N)=O)C(N)=O | MHC class II I-A g7 (Mus musculus, UniProt P04228+Q31135) | peptide binding, competitor, competition ELISA | – | at least 24 h, pH 7.0, room temperature, added: biotinylated HEL 10-23 200 nM | > 50 µM
CCCC[C@H]1C(=O)N(C)[C@@H](CCCC)C(=O)N[C@@H](CC(C)C)C(=O)N[C@H](C(=O)NCC(N)=O)CSCC(=O)N[C@@H](Cc2ccc(O)cc2)C(=O)N2CCCC[C@H]2C(=O)N[C@@H](CC(N)=O)C(=O)N2C[C@H](O)C[C@H]2C(=O)N[C@@H](CN)C(=O)N[C@@H](CC(C)C)C(=O)N2C[C@H](O)C[C@H]2C(=O)N[C@@H](Cc2c[nH]c3ccccc23)C(=O)N[C@@H](CCN)C(=O)N[C@@H](Cc2cn(CC(=O)O)c3ccccc23)C(=O)N1C | CD274 (Homo sapiens, UniProt Q9NZQ7) | inhibitor, TR-FRET | – | – | 0.0134 µM
CC(C)[C@H](NC(=O)[C@H](CO)NC(=O)[C@@H](N)CC(=O)O)C(=O)N[C@H]1CSC(=O)[C@H](Cc2ccccc2)NC(=O)[C@H](Cc2ccc(O)cc2)NC(=O)[C@H](CO)NC(=O)[C@H](C)NC1=O | Accessory gene regulator protein C (Staphylococcus aureus, UniProt Q309Z2) | – | – | – | > 1 µM
O=P(O)(O)CNCc1ccccc1 | Urease subunit alpha (Sporosarcina pasteurii, UniProt P41020) | enzyme activity, inhibitor, indophenol colorimetric | – | 20 min, pH 7.0, 37 °C, added: 50 mM urea | > 1000 µM
CCC[C@@H]1NC(=O)[C@H]([C@@H](C)O)NC(=O)[C@H](CCCNC(=N)N)NC(=O)CNC(=O)CC[C@@H](C(=O)N[C@@H](C)C(=O)N[C@@H](CCCNC(=N)N)C(=O)N[C@@H](CCCCN)C(=O)N[C@@H](CO)C(=O)N[C@H](C(=O)NCC(=O)NCC(N)=O)[C@@H](C)O)NC(=O)[C@H](CCC(N)=O)NC1=O | SETD7 (Homo sapiens, UniProt Q8WTS6) | H3K4 peptide methylation, inhibitor, MALDI-TIMS-TOF MS | – | 30 min, 37 °C, added: H3K4 peptide 10 µM, SAM 30 µM | 83.1 µM
Cn1c(=O)c2cc(C(=O)NCCCN3CCCCCC3)sc2c2ccccc21 | Bifunctional FPP/GGPP synthase (Plasmodium falciparum, UniProt Q8II79) | FPP production, inhibitor | – | saturating substrate | 2 µM
N#Cc1cn([C@@H]2O[C@H](CSCC[C@H](N)C(=O)O)[C@@H](O)[C@H]2O)c2ncnc(N)c12 | EHMT2 (Homo sapiens, UniProt Q96KQ7) | enzyme activity, inhibitor, radiometric | – | – | > 50 µM
O=C(NCCN1CCC2(CC1)C(=O)NCN2Cc1ccccc1F)c1ccc2ccccc2c1 | Phospholipase D2 | enzyme activity, inhibitor | – | – | 0.205 µM
Cc1ccc(C(C)C)cc1.[Cl][Au].[Cl][Ru][Cl].c1ccc(P(CP(c2ccccc2)c2ccccc2)c2ccccc2)cc1 | Cathepsin B (CTSB, Homo sapiens, UniProt P07858) | enzyme activity, inhibitor, fluorescence | – | – | 31 µM
O=C1c2ccccc2[Se](=O)N1c1ccccc1 (centres unmarked) | HDAC4 (Homo sapiens, UniProt P56524) | enzyme activity, inhibitor, fluorescence | – | – | 4.7 µM

Some of these lines once more:
SMILES | target | test | system | setting | IC50
O=C(NCCN1CCC2(CC1)C(=O)NCN2Cc1ccccc1F)c1ccc2ccccc2c1 | Phospholipase D2 | enzyme activity, inhibitor | – | – | 0.205 µM
C[C@]12CCC[C@H]1[C@@H]1CCc3c(cc(Br)c(O)c3Br)[C@H]1CC2 | AKR1C2 (Homo sapiens, UniProt P52895) | enzyme activity, inhibitor, absorbance | – | pH 9 | 0.9 µM
NC[C@@H]1[C@@H](O)[C@@H](O)[C@H]2[C@@H](O)CCCN21 | Alpha-mannosidase 2 (Homo sapiens, UniProt Q16706) | enzyme activity, inhibitor, 4-MU fluorogenic | – | added: Man-α-4MU 5 mM | 48 µM
